Measured values gathered from unrelated publications.
Every numbered part comes from another study and shows a few of its results, in no order. Changes are numbered by the printed parent chain.

Block 1
Target: PABPC1L2, full length, GST fusion (mouse, UniProt A0ABA7IW68)
Technique: RNAcompete
Molecule type: RNA
Medium: in vitro
Concentration: 20 nM
Notes: 7-mer, probes averaged, single round
Relative to: mean of 7-mers
Reading: higher = stronger binding
Quantity: 7-mer Z-score
Target sequence (chain): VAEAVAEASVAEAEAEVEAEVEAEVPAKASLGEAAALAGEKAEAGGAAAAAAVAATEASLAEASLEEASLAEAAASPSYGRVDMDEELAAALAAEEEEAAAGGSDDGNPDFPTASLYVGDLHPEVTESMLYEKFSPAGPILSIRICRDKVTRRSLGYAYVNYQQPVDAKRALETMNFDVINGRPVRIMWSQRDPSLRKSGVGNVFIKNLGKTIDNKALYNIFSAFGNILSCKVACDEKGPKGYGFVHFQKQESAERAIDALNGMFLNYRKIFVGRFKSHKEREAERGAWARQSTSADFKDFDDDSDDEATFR
AUCAGCC: -0.296
UACCCCC: -0.492
CCGUAGC: -0.264
GAGUGCG: -0.166
GUAACCC: -0.289
UUAUACA: -0.0283
GUAUAUC: -0.188
GAACUCU: -0.28
CAAAAAC: 18
GGCCACU: -0.13
GACAGCU: -0.215
ACUCUCU: -0.331
AGGUACU: -0.141
UAAUCGU: -0.336
ACUUCAG: -0.157
ACCGGCA: -0.148
GGCUGGC: 0.146
CAAAUCC: -0.00289

Block 2
Target: Fragile X messenger ribonucleoprotein 1, C-terminal low-complexity region (Fmr1, Mus musculus, UniProt P35922)
Technique: RNA Bind-n-Seq
Molecule type: RNA
Medium: in vitro
Concentration: 200 nM
Notes: whole 134-nt RNA, ends assumed
With: 150 mM LiCl
Relative to: input library
Reading: higher = stronger binding
Quantity: log2 enrichment
Library: 7-deaza-guanosine replaces G
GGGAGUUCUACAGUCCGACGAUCCACAGACAACACGCACCCACACAGACACAGAGGGCAGGGGUUGGGAUGGGGACAGGGUGCACAGCAGGGCGGGGUAGGACCCCAGCCCCUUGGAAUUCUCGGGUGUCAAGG: -0.34
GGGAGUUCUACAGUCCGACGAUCCUGUGCUACACAUCGUAUGUACCGAAUCGGGGAAAAAGGGGAAAAAGGGGAAAAAAAGGGGAAAGUAUUAUGUUACGCCGUUCGGAUCUGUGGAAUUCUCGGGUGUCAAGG: 1.33
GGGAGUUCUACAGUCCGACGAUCACCAUGCAGGUGGGCAUCUUUGAGAAGUGGGGCAAGGGGGGGAUAGGGAGGGGGGUAACACUUUGGGAACAGGUGGUCCCAGGUCGUUUCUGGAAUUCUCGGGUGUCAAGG: 1.48
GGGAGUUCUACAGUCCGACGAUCUAACUUUAGAGGAGGAUCUGAUGGAUAUGGCAGUGGACGUGGAUUUGGGGAUGGCUAUAAUGGGUAUGGCGGAGGACCUGGAGGUGGCAAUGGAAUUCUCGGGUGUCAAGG: 0.231
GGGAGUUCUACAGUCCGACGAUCCACAGACAACACGCACCCACACAGACACAGAGGGAAGGGGUUGGGAUGGGGACAGGGUGCACAGCAGGGCGGGGUAGGACCCAAACCCCUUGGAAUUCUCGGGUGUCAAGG: -0.406
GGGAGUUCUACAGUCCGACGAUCUGCAGUGAUGGUCAUUGUCCUCCAGAGCAGUGAUGGAGGAAAUACCAGCCCAGGAAGCAGCAGGGUCACCAAGGGUCCAGUUUCAGUCUUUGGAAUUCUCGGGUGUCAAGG: -0.503
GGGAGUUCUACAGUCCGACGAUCGUCCUGUGCUACACAUCGUAUGUACCGAAUCGGGGCCCCGGGGCCCCGGGCCCCGGGGAAAGUAUUAUGUUACGCCGUUCGGAUCUGCACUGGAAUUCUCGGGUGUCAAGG: -0.543
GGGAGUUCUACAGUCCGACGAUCUCCUCAAGUCCUGUGCUACACAUCGUAUGUACCGAAUCGGUGGUUUGGUGGAAAGUAUUAUGUUACGCCGUUCGGAUCUGCACUUCCAGCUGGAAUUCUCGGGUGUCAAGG: 0.167
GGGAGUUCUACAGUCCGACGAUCGCAGGAAGUAAAAACAAAUGUAAAUGCUUCGGAUAGUGGCAGGGGUGGGGGUUGCUAAGGAAAGGGUGGGAUGGGAGUGGGUAAAGAGUUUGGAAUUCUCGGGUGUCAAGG: 1.44
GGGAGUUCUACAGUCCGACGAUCCCUGUGCUACACAUCGUAUGUACCGAAUCGGGAAAAAAAGGAAAAAAAGGAAAAAAAGGGGAAAGUAUUAUGUUACGCCGUUCGGAUCUGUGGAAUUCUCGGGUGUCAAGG: -0.128
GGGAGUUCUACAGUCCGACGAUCUGUGCUACACAUCGUAUGUACCGAAUCGGGGCCCCCCCGGGGCCCCCCCGGGCCCCCCCGGGAAAGUAUUAUGUUACGCCGUUCGGAUCUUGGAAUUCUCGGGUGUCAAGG: -1.84

Block 3
Target: human cyclin B2
Read-out: peptide binding
Technique: yeast competitive growth sequencing
Molecule type: peptide
Organism: Saccharomyces cerevisiae
Strain: cyclin B2-Cln2 fusion
Concentration: concentration not given
Notes: library 1
Reading: direction not given
Quantity: binding enrichment score
ASPLKKLFTSTGL: -0.569
GAPLKKLFTSTGL: -1.17
GSPLAKAFTSTGL: 0.363

Block 4
Target: Histone acetyltransferase KAT6A, both winged helices, GST fusion (KAT6A, Homo sapiens, UniProt Q92794, residues 1-181)
Technique: protein binding microarray
Molecule type: double-stranded DNA, one strand shown
Medium: in vitro
Concentration: not given
Notes: 8-mer, flanks averaged, mean of 2 arrays, mostly near background
Relative to: not given
Reading: higher = stronger binding
Quantity: E-score
Construct (chain): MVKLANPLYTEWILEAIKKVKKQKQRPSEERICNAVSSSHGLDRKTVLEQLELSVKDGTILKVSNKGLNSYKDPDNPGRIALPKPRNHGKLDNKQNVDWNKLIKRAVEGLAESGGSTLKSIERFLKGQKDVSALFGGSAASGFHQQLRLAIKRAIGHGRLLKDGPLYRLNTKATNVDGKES
CCACGTCA: -0.135
ACGGGAAA: 0.254
GTAGCGAC: 0.16
AAATGTCT: -0.0318
AGACTGAT: -0.113
GCTCATTA: -0.0476
ATAGGTTC: -0.0616
TACTAATA: -0.128
AATGTGCG: 0.107
GGACTCCC: -0.0479
ACATGCCG: 0.294
AGTCCCAT: -0.193
ACCGAATC: 0.0468
AACCTCCG: 0.006
CGACTATC: -0.0433
CGTGGTGA: 0.105
AGCCAAGG: -0.23
GAGCCACA: -0.191
AACCTCAC: -0.209
ACCAGAAA: -0.152
GCCTTTTA: 0.0106
CCACGTCG: 0.0715
CCGTGGAG: 0.163
ACCCTAGC: -0.0678
CTACTATC: 0.0181

Block 5
Target: CREB3L4, bZIP domain (human)
Technique: DHFR protein complementation
Medium: yeast
Notes: single substitutions, most at no-binding floor
Relative to: wild-type JUN-FOS pair
Reading: higher = stronger binding
Quantity: binding fitness
Starting sequence: JUN, bZIP domain (human); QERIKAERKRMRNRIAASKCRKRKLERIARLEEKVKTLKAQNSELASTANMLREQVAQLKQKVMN; partner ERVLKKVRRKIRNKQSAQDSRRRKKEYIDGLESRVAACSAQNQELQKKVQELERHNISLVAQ
S47C: -1.48 natural log
T48M: -1.28 natural log
T48W: -1.34 natural log
R30T: -1.11 natural log
A46H: -1.48 natural log
V35L: -1.4 natural log
R30Q: -1.14 natural log
N42W: -1.47 natural log
V35S: -1.43 natural log
V56M: -1.33 natural log
L52K: -1.42 natural log
Q41A: -1.42 natural log
R53T: -1.48 natural log
Q41K: -1.43 natural log
T37P: -1.54 natural log
K34D: -1.49 natural log
S43Y: -1.45 natural log

Block 6
Target: RNA binding protein fox-1 homolog 2, RRM domain, GST-SBP tag (RBFOX2, Homo sapiens, UniProt O43251-10, residues 100-194)
Technique: RNA Bind-n-Seq
Molecule type: RNA
Medium: in vitro
Concentration: 365 nM
Notes: natural RNA segment, single round, ends assumed
Relative to: no-protein control
Reading: higher = stronger binding
Quantity: RBNS enrichment (R)
Construct (chain): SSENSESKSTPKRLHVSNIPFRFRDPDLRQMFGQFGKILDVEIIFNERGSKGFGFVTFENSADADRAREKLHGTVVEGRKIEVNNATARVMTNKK
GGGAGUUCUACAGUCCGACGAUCAUUUUAUGGUUUUUUUUUAAAAUCGUGUUUUGUCACAGAUGCCCCUAGUGUUUGUGCUAACCUAGUCAGAAGCAAGUGUCUCACUCACUUGCUGCAGAUGGAACAAAUGCUGGAAUUCUCGGGUGCCAA: 0.389
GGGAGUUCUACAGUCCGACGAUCCAGCCACCUUCCUCACAGGGACUAGGAGGCUCAGUCCCCAACGGCUGGCAAGACUCAGGGUCCUCAGUGGACAUGGUGUGGGUGACAUCAGAAGGGUGCCACAUCAGUCCUGGAAUUCUCGGGUGCCAA: 0.427
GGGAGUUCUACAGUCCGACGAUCAAUCAGACUGAGGAAGCUGUGACAUAGGACUUGAAGACCAAAGACUUUGAAAUUUGCGAGCUGCUCAUGUGUGAGUUAUUAUCACUGCUGUCUUUCUAUUGAGUUACAAAUGGAAUUCUCGGGUGCCAA: 0.796
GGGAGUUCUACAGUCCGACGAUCAUAAUCAAAACUUUUUACAUGAGCAAAAUUCAGUAAGAAAUGGGGGAAGACAAAGGAAACGUCUUUGAGAAGCCCCUUCAUAUUUAUUUAUUUAUCUCUUCCUGAACCAUUGGAAUUCUCGGGUGCCAA: 0.412
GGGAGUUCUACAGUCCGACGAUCAAAACAGUCUGAAUGAAUUUGGUGAAAAGUGGGAGUUAAACUCUGGAGAUGGAGCUUUCUAUGGCCCAAAGGUUGACAUACAGAUUAAAGAUGCGAUUGGGCGGUACCACUGGAAUUCUCGGGUGCCAA: 0.571
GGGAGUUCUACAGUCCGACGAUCAUCGGUUGGUCUUGCUAAUUGAAGCUCAGAAAAAUAUAGAUGGUCUCUCCCGACCCUGUUUGUGGUGUGUGCUGGCCUAUCAGGAUCUGGUUAGCCUUUGGAAUUUUUGUUGGAAUUCUCGGGUGCCAA: 1.02
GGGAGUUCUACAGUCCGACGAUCUUCCUUGUAAUGAGUAGGUUUGGAUUUAAGAGCCGAUUAGAGGCUACUUCCUGUAAACAAGUACAGGAAAAUGAAACUAGACGGGUGGGGGACACUAGAAUGAAAACCAGUGGAAUUCUCGGGUGCCAA: 0.899
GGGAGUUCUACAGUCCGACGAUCAUACGCACCGGGCCAGGACCUGGAGCUGGGCUGCCACUAUGAUAAUGCCGAGCUCACCCUCAAUGUGGCCUUGGGCAAGGUCUUCACAGGGGGCGCCCUGUAUUUUGGGGUGGAAUUCUCGGGUGCCAA: 0.365
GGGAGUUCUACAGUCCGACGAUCUAAAAAAAAAAAAAGGAUUUGAAACCAUAAAGUGUUCUGAAGAAAUUAAGUCUAUAAAAAGCAUACUUUCUUUUUUCUUUUCCUUUUUUCCCUCCACAGACAAUGUCCUCUGGAAUUCUCGGGUGCCAA: 0.406
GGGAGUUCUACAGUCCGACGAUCCAGUAGCACAUUAAUUUAAAUCUGUGUUUUUAACUACCGUGGGAGGAACUAUCCCACCAAAGUGAGAACGUUAUGUCAUGGCCAUACAAGUAGUCUGUCAACCUCAGACAUGGAAUUCUCGGGUGCCAA: 0.459
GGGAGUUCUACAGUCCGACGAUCGGCCCCUGCCCUUCUCUUUCUCCCAGAUGGAUCCUUCCAGCAGAGAAAUAAAGCCUUAUCCAUUACACGCACUGGUUUUAAGGUGGUUUGUGUCUUGGCUGAGGCAGGGGUGGAAUUCUCGGGUGCCAA: 0.211
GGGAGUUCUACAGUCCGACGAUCCUCUCCAAGUGGAAACGUGCUAACUUUUUCUGUAAAUCUGAAAUAAAAGGUGCUGUUCCUUCCUCUGACCCAGGACUGCUUUGUGUUUUCUGUCUUUCUCUCCAUGCAUUUGGAAUUCUCGGGUGCCAA: 0.797

Some of these lines once more (block 5):
R30T: -1.11 natural log
A46H: -1.48 natural log
V35L: -1.4 natural log
R30Q: -1.14 natural log
N42W: -1.47 natural log
V35S: -1.43 natural log
V56M: -1.33 natural log
L52K: -1.42 natural log
Q41A: -1.42 natural log
